Experimental data of several laboratories.
Lines come from different studies, so protocols differ. “And” joins repeats or separate records; there may be more than shown. ± gives the spread as reported.

`CCc1nn(C)c2nc(-c3ccc(C(=O)O)cc3)nc(NCc3ccc(F)cc3)c12` gave a body weight of 20.3 g and 22 g and 21.2 g and 17.6 g (NSG mice; dose not given, day 8 of treatment).
For `Cc1cnc(Nc2ccc(OCCN3CCCC3)cc2)nc1Nc1cccc(S(=O)(=O)NC(C)(C)C)c1`, the body weight was 19.2 g and 19 g and 18.4 g and 17.9 g and 18.7 g (BALB/c mice, rhEPO-induced polycythemia; 120 mg/kg, day 2).
Under body weight, `C=CC(=O)N1C[C@@H](n2nc(C#Cc3c(F)cc4c(ncn4C4CC4)c3F)c(C(N)=O)c2NC)C[C@@H]1COC` is recorded as “not toxic” (mice, CC-LP-1 xenograft; 5 and 15 mg/kg, 25 days).
The body weight of `COc1cccc2c1C(=O)c1c(O)c3c(c(O)c1C2=O)C[C@@](O)(C(=O)CO)C[C@@H]3O[C@H]1C[C@H](N)[C@H](O)[C@H](C)O1` is reported as 19 ± 0.13 g (BALB/c mice, 4T1 tumour model; 2 mg/kg, day 11).
The body weight of `O=C1NC(=O)/C(=C/c2ccc3ncnc(N4CCC(F)(F)CC4)c3n2)S1` is reported as 14.7 g and 15.5 g and 13.9 g and 20.9 g (NSG mice; dose not given, day 5).
`COc1cc(N2CCC(N3CCN(C)CC3)CC2)ccc1Nc1ncc(Cl)c(Nc2ccccc2P(C)(C)=O)n1` gave a body weight of 20.1 g and 23.3 g and 23.5 g and 22.1 g and 24.1 g (nude mice, NCI-H3122 xenograft; intraperitoneal, 10 mg/kg every other day, day 1).
`CCc1cnc(NC(=O)c2cc(S(=O)(=O)N3CCOCC3)ccc2N(C)C2CCCC2)s1`: body weight “not toxic” (mice bearing H1975-OR xenografts; dose not given).
With `C1=C/COCc2cc(ccc2OCCN2CCCC2)Nc2nccc(n2)-c2cccc(c2)COC/1` the body weight was 20.3 g and 19.2 g and 18.7 g and 18 g and 18.8 g and 17.9 g (BALB/c mice, rhEPO-induced polycythemia; 120 mg/kg, day 5).
`CCN1CCN(C(=O)c2ccc(-n3nc(-c4cccnc4)c4c3-c3sc(NC(C)=O)nc3CC4)cc2)CC1` has a body weight of 19.7 g and 19.8 g and 16.1 g and 18.8 g (NSG mice; dose not given, day 2).

Excerpt of the above:
For `Cc1cnc(Nc2ccc(OCCN3CCCC3)cc2)nc1Nc1cccc(S(=O)(=O)NC(C)(C)C)c1`, the body weight was 19.2 g and 19 g and 18.4 g and 17.9 g and 18.7 g (BALB/c mice, rhEPO-induced polycythemia; 120 mg/kg, day 2).
